Results collected from several papers.
Lines come from different studies, so protocols differ. ± marks the error that the study gave. Values after ≈ are worked out from the molar mass of the structure shown.

Cc1ccc(Nc2nc(-c3cc(C(=O)Nc4ccc(O)cc4)no3)cs2)cc1 — IC50 (Mycobacterium avium; 11; 96 h): > 100 µM
COc1cc2[nH]c(C)c(-c3ccc(C(F)(F)F)cc3)c(=O)c2cc1Cl — parasitaemia suppression (Plasmodium berghei (GFP); mice; oral, 10 mg/kg once daily, days 3-5, day 6 post-infection): 11 ± 2.3%
Cc1ccc(S(=O)(=O)N2C(=O)CSC2c2ccc(F)cc2)cc1 (stereo not shown) — MIC (Lacticaseibacillus casei; broth microdilution; NCIM 2651): 4 µg/mL (≈ 11.4 µM)
C[C@H]1[C@H](OC(=O)CCC(=O)O)O[C@@H]2O[C@@]3(C)CC[C@H]4[C@H](C)CC[C@@H]1[C@@]24OO3 — EC50 (Hepatitis E virus; viral replication, inhibitor, luciferase; 48 h, replicon): 19.5 µM
LSTFFRLFN — MIC (Streptococcus mutans; broth microdilution; peptide, UA159; planktonic, anaerobic): > 256 µg/mL
CC(=O)O[C@@H]1CC[C@@]2(C)[C@@H](C1)C[C@H](OC(C)=O)[C@@H]1[C@@H]2CC[C@]2(C)[C@@H]([C@H](C)CCC(N)=O)CC[C@@H]12 — complete inhibition concentration (Clostridioides difficile; spore germination, inhibitor, OD600; NAP1; 20 min, with: 2000 µM taurocholate): 50 µM
CN[C@H](CC(C)C)C(=O)N[C@H]1C(=O)N[C@@H](CC(N)=O)C(=O)N[C@H]2C(=O)N[C@H]3C(=O)N[C@H](C(=O)N[C@H](C(=O)O)c4cc(O)cc(O)c4-c4cc3ccc4O)[C@H](O)c3ccc(c(Cl)c3)Oc3cc2cc(c3O[C@@H]2O[C@H](CO)[C@@H](O)[C@H](O)[C@H]2O[C@H]2C[C@](C)(N)[C@H](O)[C@H](C)O2)Oc2ccc(cc2Cl)[C@H]1O — serum cytokine level (Staphylococcus aureus CVCC546; ELISA, item: IL-10; CD-1 mouse endometritis; 10 µg/mL, 24 h): 48.2 pg/mL
O=C(CN1C(=O)Cc2c([nH]c3ccc(Br)cc23)-c2ccc(Cl)cc21)N1CCOCC1 — EC50 (Leishmania braziliensis; parasite growth; J774; 24 h, intracellular, amastigote): 1.6 µM
O=C(Nc1ccc(Cl)cc1)Nc1nnc(SCC(O)(Cn2cncn2)c2ccc(F)cc2F)s1 (stereo not shown) — MIC90 (Nannizzia gypsea; broth microdilution; PTCC 5070; 48 h, 37 °C): 8 µg/mL (≈ 15.3 µM)
CC[C@H]1OC(=O)[C@H](C)[C@@H](O[C@H]2C[C@@](C)(OC)[C@@H](O)[C@H](C)O2)[C@H](C)[C@@H](O[C@@H]2O[C@H](C)C[C@H](N(C)C)[C@H]2O)[C@](C)(O)C[C@@H](C)C(=O)[C@H](C)[C@@H](O)[C@]1(C)O — sensitive strains (other Haemophilus species; community-acquired pneumonia patients; Fine score 70 or more): 0%
Cc1occc(=O)c1O — mycelial growth (Phyllosticta citricarpa; PDA plates; 10000 µg/mL, 504 h): 2.9 ± 0.3 cm
N=C(N)c1ccc(OCCCCCOc2ccc(C(=N)N)cc2)cc1 — IC90 (Leishmania donovani; parasite growth; THP-1; intracellular, amastigote): > 16.9 µM
CN(C(=O)c1ccn2ncc(-c3ccc(C(N)=O)cc3)c2c1)c1ccc(C#N)cn1 — EC50 (Cryptosporidium parvum; cytopathic effect; HCT-8; 48 h): 0.156 ± 0.028 µM
CC1(C)S[C@@H]2[C@H](NC(=O)[C@H](N)c3ccc(O)cc3)C(=O)N2[C@H]1C(=O)O — sensitive strains (other Enterobacteriaceae; community-acquired pneumonia patients; Fine score 70 or more): 28.6%
CC(C)(C)NC(=O)CN1C(=O)Cc2c([nH]c3ccc(Br)cc23)-c2ccc(Cl)cc21 — infected macrophages (Leishmania braziliensis; intracellular amastigote infection, DAPI fluorescence microscopy; macrophages; 10 µM, 24 h, 5 µM if macrophages detach; lower = more active): 72 to 107%
O=C(Nc1nnc(SCC(O)(Cn2cncn2)c2ccc(F)cc2F)s1)Nc1ccccc1C(F)(F)F (stereo not shown) — MIC90 (Nannizzia gypsea; broth microdilution; PTCC 5070; 48 h, 37 °C): 2 µg/mL (≈ 3.59 µM)

For quick reference, copied from above:
Cc1ccc(S(=O)(=O)N2C(=O)CSC2c2ccc(F)cc2)cc1 (stereo not shown) — MIC (Lacticaseibacillus casei; broth microdilution; NCIM 2651): 4 µg/mL (≈ 11.4 µM)
LSTFFRLFN — MIC (Streptococcus mutans; broth microdilution; peptide, UA159; planktonic, anaerobic): > 256 µg/mL
